Assay results from different studies.
Numbered parts are unrelated; each lists some results of a single study. “And” joins repeats or separate records; there may be more than shown.
UniProt P53355, sequence (whole entry, looked up): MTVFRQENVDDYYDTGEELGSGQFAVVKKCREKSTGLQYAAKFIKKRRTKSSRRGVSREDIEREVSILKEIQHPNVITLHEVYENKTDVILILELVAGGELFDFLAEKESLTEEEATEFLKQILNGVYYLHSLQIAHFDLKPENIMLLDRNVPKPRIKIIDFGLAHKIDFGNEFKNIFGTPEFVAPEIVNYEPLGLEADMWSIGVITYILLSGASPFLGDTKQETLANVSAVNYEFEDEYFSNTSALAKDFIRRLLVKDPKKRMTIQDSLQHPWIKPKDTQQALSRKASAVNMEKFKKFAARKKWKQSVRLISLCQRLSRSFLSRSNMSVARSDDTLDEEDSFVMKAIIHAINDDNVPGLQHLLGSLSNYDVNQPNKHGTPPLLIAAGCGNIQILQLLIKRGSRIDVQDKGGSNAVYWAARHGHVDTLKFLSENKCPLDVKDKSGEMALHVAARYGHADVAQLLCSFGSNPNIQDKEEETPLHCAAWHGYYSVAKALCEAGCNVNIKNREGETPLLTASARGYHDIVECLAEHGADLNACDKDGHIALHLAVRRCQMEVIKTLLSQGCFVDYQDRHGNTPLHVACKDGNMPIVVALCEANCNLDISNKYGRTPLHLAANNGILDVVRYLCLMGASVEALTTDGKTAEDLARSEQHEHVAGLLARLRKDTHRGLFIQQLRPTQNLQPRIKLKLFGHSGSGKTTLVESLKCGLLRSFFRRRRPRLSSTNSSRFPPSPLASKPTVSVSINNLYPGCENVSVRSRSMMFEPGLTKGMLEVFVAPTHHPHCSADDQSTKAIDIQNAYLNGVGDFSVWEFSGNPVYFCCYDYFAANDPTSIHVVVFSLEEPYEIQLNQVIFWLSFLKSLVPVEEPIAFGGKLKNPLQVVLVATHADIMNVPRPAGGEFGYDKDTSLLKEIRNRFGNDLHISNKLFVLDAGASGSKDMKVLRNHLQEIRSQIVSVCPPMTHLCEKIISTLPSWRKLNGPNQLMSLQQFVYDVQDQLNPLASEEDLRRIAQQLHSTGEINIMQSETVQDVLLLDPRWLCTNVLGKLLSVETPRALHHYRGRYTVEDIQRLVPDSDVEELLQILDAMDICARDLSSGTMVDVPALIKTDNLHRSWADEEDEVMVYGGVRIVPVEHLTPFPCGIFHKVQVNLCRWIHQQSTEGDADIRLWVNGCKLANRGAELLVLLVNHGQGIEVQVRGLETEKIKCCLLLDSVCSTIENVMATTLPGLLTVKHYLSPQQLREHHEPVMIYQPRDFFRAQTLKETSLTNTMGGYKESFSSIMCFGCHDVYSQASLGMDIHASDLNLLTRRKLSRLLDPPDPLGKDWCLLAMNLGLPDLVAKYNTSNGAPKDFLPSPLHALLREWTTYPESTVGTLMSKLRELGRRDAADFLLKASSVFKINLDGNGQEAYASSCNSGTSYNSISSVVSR
UniProt Q9HCP0, sequence (whole entry, looked up): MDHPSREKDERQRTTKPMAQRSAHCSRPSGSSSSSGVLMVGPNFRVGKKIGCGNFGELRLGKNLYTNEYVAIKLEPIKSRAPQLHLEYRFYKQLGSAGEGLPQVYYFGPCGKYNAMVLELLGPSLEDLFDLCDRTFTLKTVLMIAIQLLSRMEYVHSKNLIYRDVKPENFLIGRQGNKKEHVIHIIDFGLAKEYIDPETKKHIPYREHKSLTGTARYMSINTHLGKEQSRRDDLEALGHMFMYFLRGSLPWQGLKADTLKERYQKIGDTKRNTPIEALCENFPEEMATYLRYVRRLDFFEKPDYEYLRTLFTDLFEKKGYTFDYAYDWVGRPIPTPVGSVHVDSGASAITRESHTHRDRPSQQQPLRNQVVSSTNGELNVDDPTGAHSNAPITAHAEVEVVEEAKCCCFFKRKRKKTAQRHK
UniProt Q14289, sequence (whole entry, looked up): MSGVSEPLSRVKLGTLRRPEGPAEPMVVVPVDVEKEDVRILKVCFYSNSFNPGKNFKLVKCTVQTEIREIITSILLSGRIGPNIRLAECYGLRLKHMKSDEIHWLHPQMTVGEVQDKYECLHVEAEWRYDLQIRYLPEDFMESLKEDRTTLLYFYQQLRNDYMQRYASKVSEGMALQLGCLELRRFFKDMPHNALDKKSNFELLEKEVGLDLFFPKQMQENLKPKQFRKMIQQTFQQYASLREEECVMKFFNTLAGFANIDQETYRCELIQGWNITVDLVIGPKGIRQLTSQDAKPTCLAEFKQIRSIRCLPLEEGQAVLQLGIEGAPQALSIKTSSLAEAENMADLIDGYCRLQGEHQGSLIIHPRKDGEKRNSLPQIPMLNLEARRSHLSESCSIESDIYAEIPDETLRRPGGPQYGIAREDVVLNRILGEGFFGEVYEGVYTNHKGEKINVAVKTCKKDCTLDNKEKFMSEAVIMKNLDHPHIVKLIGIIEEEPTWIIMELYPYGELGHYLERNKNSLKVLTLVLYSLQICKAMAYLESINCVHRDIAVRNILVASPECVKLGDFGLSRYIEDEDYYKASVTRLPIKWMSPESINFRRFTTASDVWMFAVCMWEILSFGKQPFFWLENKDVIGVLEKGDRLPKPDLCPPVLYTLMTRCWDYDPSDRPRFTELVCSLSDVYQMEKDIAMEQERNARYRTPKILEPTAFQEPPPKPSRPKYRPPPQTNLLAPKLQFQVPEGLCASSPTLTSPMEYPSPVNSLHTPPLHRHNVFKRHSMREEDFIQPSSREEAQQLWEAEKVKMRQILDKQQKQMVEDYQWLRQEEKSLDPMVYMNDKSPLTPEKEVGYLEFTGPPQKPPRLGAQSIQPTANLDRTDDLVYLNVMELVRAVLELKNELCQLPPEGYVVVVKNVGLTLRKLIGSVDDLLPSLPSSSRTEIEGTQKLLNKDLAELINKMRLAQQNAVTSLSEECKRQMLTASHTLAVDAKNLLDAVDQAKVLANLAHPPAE
UniProt P78368, sequence (whole entry, looked up): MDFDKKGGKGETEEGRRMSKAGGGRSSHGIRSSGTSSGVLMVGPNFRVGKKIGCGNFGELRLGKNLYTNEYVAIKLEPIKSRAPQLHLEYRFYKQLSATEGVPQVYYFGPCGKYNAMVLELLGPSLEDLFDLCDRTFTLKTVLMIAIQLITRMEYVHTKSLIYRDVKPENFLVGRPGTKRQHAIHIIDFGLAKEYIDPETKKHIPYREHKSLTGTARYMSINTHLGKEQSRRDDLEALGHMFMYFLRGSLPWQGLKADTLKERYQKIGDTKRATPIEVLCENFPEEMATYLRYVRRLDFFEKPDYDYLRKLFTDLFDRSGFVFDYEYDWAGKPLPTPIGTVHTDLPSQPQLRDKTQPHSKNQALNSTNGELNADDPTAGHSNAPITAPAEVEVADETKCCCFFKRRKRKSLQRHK
UniProt Q13705, sequence (whole entry, looked up): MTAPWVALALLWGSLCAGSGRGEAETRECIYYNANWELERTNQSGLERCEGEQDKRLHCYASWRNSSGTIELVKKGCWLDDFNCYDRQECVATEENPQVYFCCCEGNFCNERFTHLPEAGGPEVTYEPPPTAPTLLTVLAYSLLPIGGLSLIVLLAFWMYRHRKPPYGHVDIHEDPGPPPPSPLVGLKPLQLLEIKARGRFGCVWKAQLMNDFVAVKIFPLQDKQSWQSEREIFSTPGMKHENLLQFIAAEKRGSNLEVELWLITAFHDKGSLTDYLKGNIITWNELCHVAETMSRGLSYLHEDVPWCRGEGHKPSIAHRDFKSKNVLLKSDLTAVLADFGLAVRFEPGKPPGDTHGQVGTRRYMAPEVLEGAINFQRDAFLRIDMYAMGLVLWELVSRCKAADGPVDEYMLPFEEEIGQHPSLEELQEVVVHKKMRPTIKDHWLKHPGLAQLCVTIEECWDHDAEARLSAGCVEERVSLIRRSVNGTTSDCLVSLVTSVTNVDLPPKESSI

Sample 1 — effect on: cell-free assay; method: competition with immobilised ligand; concentration: 1 µM; measurement: remaining binding
Structure (SMILES): CN(C(=O)c1ccccc1)c1cc(N(C)c2ccc3c(c2)CCc2ccc(C(=O)NCCN4CCOCC4)cc2C3=O)ccc1F
target = PRKACA (Homo sapiens, UniProt P17612); value = 100%
target = CSNK1G2 (Homo sapiens, UniProt P78368); value = 90%
target = ACVR2B (Homo sapiens, UniProt Q13705); value = 100%
target = PTK2B (Homo sapiens, UniProt Q14289); value = 87%
target = CSNK1G1 (Homo sapiens, UniProt Q9HCP0); value = 100%
target = CHEK1 (Homo sapiens, UniProt O14757); value = 98%
target = ALK (Homo sapiens, UniProt Q9UM73); value = 100%
target = DAPK1 (Homo sapiens, UniProt P53355); value = 100%

Sample 2 — cell line: mouse MPNST tumor cells; method: high-content nuclear imaging; item: cell number; concentration: 10 µM; time: 12 h; setting: mean of 2 replicates; baseline: plate mean; direction: higher = more cells; measurement: nuclei count
SMILES = C=CC(N)CCC(=O)O (centres unmarked); value = -0.0593 z-score
SMILES = COc1cc(OC)c(C(=O)CCCCN2CCC3(CC2)NC(=O)NC3=O)cc1NS(=O)(=O)c1ccc(C(F)(F)F)cc1; value = 1.4 z-score
SMILES = CC(C)[C@H]1CC[C@H](C(=O)N[C@H](Cc2ccccc2)C(=O)O)CC1; value = 0.41 z-score and 1.12 z-score and 0.702 z-score
SMILES = CN1CCN(C(=O)c2cc3cc(Cl)ccc3[nH]2)CC1; value = 2.63 z-score
SMILES = C[C@](N)(Cc1ccc(O)c(O)c1)C(=O)O; value = 0.177 z-score and 0.664 z-score
SMILES = Cc1cnc(-c2cc(N3CCN(C(=O)CCS(C)(=O)=O)CC3)ncc2Cl)c(C)c1; value = 0.546 z-score

Sample 3 — effect on: enzyme activity; mode: inhibitor; concentration: 0.5 µM; baseline: control; measurement: remaining activity
Target: Ephrin type-A receptor 4 (EPHA4, Homo sapiens, UniProt P54764)
UniProt P54764, sequence (whole entry, looked up): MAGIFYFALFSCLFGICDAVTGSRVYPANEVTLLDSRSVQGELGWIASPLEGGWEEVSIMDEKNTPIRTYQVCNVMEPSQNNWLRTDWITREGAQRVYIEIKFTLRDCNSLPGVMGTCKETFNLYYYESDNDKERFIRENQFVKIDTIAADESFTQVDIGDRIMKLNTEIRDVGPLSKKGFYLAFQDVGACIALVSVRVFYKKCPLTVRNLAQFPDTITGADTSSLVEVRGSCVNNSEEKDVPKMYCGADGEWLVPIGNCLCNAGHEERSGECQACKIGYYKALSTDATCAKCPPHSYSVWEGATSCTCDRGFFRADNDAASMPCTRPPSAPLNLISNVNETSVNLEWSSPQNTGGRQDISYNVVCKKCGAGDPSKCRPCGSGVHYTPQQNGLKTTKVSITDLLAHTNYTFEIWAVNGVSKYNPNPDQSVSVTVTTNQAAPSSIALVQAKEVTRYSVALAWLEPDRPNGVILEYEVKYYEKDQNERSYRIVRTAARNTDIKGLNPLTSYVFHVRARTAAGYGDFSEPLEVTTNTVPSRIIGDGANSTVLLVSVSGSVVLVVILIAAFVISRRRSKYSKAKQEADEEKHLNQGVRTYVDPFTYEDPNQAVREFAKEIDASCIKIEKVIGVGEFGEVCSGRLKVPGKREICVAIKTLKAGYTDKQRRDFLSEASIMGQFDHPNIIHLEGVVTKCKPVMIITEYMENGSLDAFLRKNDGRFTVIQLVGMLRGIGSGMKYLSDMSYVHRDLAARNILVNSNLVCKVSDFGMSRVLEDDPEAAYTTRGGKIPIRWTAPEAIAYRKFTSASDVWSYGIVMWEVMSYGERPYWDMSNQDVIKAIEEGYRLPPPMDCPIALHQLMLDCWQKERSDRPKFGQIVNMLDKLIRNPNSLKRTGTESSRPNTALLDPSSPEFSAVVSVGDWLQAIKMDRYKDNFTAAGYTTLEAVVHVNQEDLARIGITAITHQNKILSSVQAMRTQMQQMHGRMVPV
SMILES = COc1cc2nccc(Oc3ccc(NC(=S)NC(=O)c4ccccc4C)cc3)c2cc1OC; value = 81.4%
SMILES = CN(C)c1ccc(C=C2C(=O)Nc3ccccc32)cc1; value = 95.2%
SMILES = NCCNc1ncc(C(N)=O)c(Nc2cccc(C(F)(F)F)c2)n1; value = 101%
SMILES = COc1ccc(OC)c2c(=S)c3ccccc3[nH]c12; value = 88.8%
SMILES = Cn1sc(=O)n(Cc2ccccc2)c1=O; value = 110%
SMILES = CNC(=O)c1cc(Oc2ccc(NC(=O)Nc3ccc(Cl)c(C(F)(F)F)c3)cc2)ccn1; value = 92.5%
SMILES = Cc1ccc(Nc2nccc(N(C)c3ccc4c(C)n(C)nc4c3)n2)cc1S(N)(=O)=O; value = 94.5%
SMILES = COc1ccc(CNC(=O)Nc2ncc([N+](=O)[O-])s2)cc1; value = 101%
SMILES = O=c1c2ccccc2[nH]c(=S)n1CCN1CCC(=C(c2ccc(F)cc2)c2ccc(F)cc2)CC1; value = 99.4%
SMILES = O=S(=O)(c1cccc2cnccc12)N1CCCNCC1; value = 98.5%
SMILES = Oc1ccc(-c2nc(-c3ccncc3)c(-c3ccc(F)cc3)[nH]2)cc1; value = 96.2%
SMILES = N#CC(C#N)=C(N)/C(C#N)=C/c1ccc(O)cc1; value = 96%
SMILES = Nc1[nH]nc2nc3ccccc3nc12; value = 86.5%
SMILES = Cc1cccc(-c2[nH]c(C(C)(C)C)nc2-c2ccc3c(c2)OCO3)n1; value = 97.3%
SMILES = Cn1c2ccccc2c2c3c(c4c5ccccc5n(CCC#N)c4c21)CNC3=O; value = 90.4%

Sample 4 — method: Incucyte 3D growth; concentration: 30 µM; direction: higher = more growth; measurement: spheroid area
SMILES: CC(C)(C(=O)O)[C@H](NC(=O)Cc1cccc(I)c1)c1ccc2oc(=O)[nH]c2c1
cell line = NCI-H358; setting = 138 h; value = 7.19e+06 a.u. and 7.66e+06 a.u. and 6.1e+06 a.u. and 5.13e+06 a.u. and 5.02e+06 a.u. and 5.52e+06 a.u.
cell line = PC-9; setting = 90 h; value = 6.62e+08 a.u. and 6.5e+08 a.u. and 6.77e+08 a.u. and 6.7e+08 a.u. and 6.71e+08 a.u. and 6.78e+08 a.u.
cell line = IPC-298; setting = 258 h; value = 3.36e+07 a.u. and 3.82e+07 a.u. and 2.72e+07 a.u. and 4.47e+07 a.u. and 2.63e+07 a.u. and 3.08e+07 a.u.
cell line = A375; setting = 102 h; value = 5.29e+07 a.u. and 7.07e+07 a.u. and 7.39e+07 a.u. and 5.5e+07 a.u. and 6.73e+07 a.u. and 6.04e+07 a.u.
cell line = IPC-298; setting = 144 h; value = 2.56e+07 a.u. and 3.41e+07 a.u. and 2.9e+07 a.u. and 2.3e+07 a.u. and 3.37e+07 a.u. and 2.82e+07 a.u.
cell line = A375; setting = 198 h; value = 1.2e+08 a.u. and 1.38e+08 a.u. and 1.19e+08 a.u. and 1.15e+08 a.u. and 1.02e+08 a.u.

Repeated from above (sample 4):
cell line = NCI-H358; setting = 138 h; value = 7.19e+06 a.u. and 7.66e+06 a.u. and 6.1e+06 a.u. and 5.13e+06 a.u. and 5.02e+06 a.u. and 5.52e+06 a.u.
cell line = PC-9; setting = 90 h; value = 6.62e+08 a.u. and 6.5e+08 a.u. and 6.77e+08 a.u. and 6.7e+08 a.u. and 6.71e+08 a.u. and 6.78e+08 a.u.
cell line = IPC-298; setting = 258 h; value = 3.36e+07 a.u. and 3.82e+07 a.u. and 2.72e+07 a.u. and 4.47e+07 a.u. and 2.63e+07 a.u. and 3.08e+07 a.u.
